Measurements pooled from the literature.
Every numbered part comes from another study and shows a few of its results, in no order.
UniProt Q96PY6, sequence (whole entry, looked up): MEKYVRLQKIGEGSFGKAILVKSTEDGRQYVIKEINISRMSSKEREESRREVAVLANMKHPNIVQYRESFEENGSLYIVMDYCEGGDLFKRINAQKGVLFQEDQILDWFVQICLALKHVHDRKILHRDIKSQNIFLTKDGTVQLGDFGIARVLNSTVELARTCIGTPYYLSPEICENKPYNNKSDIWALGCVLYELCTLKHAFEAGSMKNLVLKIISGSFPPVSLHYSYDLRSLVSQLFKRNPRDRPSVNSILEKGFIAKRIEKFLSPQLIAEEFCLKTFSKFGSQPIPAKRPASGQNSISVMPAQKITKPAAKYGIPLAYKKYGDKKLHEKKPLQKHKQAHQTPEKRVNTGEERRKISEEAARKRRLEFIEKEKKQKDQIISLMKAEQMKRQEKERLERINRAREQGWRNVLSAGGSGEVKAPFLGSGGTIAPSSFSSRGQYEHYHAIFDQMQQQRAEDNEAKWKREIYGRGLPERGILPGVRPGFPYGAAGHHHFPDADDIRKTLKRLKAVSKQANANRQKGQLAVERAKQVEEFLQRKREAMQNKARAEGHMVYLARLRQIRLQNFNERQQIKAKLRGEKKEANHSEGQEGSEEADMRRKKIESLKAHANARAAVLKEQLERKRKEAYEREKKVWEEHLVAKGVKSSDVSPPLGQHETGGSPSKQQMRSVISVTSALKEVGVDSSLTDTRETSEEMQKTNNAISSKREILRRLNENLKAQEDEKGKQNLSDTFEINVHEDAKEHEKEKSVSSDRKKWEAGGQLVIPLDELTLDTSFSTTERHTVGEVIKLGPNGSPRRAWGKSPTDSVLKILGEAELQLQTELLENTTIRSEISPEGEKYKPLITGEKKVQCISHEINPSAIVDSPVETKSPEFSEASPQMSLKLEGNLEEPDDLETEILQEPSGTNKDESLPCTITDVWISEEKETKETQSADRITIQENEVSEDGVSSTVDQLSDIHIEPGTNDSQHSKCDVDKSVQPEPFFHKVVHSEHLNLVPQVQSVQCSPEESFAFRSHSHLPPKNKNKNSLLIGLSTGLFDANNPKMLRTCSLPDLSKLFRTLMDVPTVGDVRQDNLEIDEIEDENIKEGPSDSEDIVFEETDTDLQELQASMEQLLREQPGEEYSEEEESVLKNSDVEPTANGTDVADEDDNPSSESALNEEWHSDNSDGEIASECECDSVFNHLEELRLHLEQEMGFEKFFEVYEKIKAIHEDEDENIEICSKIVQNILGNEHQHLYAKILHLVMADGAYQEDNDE
UniProt Q8TDU9, sequence (whole entry, looked up): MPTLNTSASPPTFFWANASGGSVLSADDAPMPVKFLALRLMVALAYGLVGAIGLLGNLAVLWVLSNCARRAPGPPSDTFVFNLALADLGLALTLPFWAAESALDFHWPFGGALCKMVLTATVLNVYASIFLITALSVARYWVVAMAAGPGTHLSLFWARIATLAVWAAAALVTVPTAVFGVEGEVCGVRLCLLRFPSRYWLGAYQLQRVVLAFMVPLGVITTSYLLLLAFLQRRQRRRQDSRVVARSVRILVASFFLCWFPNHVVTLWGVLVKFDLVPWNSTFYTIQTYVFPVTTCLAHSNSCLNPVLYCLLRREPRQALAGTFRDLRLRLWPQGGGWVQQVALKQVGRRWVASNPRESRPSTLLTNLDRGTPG
UniProt P21452, sequence (whole entry, looked up): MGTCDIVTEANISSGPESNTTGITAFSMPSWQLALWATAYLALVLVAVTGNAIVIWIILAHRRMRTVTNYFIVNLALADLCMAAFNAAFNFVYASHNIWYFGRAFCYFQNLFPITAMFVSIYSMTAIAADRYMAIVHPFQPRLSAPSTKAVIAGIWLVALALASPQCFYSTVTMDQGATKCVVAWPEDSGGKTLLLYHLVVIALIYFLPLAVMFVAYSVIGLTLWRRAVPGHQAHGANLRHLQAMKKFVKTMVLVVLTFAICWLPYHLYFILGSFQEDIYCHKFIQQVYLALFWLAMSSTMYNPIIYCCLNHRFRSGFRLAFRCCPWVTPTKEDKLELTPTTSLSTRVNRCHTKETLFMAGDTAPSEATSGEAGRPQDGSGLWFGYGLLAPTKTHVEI
UniProt P32247, sequence (whole entry, looked up): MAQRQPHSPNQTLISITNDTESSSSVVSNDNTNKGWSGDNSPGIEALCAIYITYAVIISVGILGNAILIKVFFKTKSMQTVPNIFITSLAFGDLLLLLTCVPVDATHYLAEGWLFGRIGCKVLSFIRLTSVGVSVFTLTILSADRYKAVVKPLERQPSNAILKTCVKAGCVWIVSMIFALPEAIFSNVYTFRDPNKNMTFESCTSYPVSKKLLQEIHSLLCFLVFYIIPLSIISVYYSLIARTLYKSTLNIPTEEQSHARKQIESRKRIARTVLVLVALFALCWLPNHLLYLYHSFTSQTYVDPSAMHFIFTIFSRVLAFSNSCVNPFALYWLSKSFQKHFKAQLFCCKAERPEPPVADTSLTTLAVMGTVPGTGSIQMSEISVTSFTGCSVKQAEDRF
UniProt Q9Y243, sequence (whole entry, looked up): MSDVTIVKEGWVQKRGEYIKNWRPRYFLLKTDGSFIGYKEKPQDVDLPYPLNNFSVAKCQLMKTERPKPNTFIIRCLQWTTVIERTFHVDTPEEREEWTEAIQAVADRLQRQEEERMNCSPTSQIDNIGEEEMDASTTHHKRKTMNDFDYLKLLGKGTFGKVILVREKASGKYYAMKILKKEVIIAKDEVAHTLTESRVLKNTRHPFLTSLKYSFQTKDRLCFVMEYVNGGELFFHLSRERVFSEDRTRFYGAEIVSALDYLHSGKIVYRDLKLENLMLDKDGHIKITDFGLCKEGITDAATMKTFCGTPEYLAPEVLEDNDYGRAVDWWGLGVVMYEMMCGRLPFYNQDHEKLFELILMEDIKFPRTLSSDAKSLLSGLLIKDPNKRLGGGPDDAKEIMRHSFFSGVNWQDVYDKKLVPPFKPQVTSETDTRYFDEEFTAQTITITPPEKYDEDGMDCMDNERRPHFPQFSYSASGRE
UniProt O75914, sequence (whole entry, looked up): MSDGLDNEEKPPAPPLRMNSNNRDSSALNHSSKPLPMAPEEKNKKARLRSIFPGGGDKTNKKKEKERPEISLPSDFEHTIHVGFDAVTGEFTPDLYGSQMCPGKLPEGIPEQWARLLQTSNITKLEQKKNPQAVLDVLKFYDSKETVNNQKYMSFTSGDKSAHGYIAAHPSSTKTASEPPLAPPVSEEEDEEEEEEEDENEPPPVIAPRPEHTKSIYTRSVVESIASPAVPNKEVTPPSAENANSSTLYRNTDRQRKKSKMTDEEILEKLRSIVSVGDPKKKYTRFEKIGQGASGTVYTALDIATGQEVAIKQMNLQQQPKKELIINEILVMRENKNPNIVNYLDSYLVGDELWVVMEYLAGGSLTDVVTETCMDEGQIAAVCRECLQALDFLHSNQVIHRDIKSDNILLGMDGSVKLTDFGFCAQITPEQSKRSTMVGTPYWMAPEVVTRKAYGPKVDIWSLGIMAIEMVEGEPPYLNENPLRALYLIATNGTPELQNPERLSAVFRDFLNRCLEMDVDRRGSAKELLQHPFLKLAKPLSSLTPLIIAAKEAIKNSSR
UniProt O14936, sequence (whole entry, looked up): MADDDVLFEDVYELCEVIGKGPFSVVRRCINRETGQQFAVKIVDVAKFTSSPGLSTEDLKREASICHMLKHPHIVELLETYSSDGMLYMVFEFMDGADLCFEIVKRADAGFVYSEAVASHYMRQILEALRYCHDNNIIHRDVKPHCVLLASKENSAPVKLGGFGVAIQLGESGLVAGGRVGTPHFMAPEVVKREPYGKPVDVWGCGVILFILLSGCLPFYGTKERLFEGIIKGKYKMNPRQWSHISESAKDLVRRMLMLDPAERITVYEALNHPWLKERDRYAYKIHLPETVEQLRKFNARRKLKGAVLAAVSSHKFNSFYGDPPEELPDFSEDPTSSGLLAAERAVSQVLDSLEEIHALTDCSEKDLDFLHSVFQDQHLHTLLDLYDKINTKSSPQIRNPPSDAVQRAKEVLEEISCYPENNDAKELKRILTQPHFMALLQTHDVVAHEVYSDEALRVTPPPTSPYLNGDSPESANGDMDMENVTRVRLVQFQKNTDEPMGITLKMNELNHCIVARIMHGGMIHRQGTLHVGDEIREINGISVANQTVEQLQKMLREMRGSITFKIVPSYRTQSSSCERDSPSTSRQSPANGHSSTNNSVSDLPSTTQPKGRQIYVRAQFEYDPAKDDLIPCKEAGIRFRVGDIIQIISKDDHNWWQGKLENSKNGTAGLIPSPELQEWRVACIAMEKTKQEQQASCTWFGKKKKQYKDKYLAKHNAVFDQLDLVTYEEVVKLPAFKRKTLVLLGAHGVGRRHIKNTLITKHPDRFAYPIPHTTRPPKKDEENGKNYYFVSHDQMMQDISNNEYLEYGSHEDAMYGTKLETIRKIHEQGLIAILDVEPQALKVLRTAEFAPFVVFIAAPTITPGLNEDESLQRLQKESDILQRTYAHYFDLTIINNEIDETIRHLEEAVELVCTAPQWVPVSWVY
UniProt P48145, sequence (whole entry, looked up): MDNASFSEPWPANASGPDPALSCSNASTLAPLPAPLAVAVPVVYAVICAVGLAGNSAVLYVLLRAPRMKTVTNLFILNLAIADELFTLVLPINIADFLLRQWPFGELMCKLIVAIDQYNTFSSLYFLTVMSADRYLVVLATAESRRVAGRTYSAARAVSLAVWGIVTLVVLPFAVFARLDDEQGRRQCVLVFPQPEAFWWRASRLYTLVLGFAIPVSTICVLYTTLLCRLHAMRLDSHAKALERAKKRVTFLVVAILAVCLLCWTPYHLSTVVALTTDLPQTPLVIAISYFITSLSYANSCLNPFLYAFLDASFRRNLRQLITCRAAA

Series 1
Target: Diamine acetyltransferase 1 (Homo sapiens, UniProt P21673)
Mode: inhibitor
Tested at: 10 µM
Relative to: control
Construct (P21673 1-171): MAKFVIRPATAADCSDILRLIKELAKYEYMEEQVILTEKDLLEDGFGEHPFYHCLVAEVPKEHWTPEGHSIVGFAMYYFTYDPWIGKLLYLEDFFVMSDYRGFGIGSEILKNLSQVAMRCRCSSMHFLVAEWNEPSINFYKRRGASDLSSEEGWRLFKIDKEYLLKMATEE
Compound	remaining activity [%]
O=C(O)[C@H]1O[C@@H](Oc2cc(O)c3c(=O)cc(-c4ccc(O)cc4)oc3c2)[C@H](O)[C@@H](O)[C@@H]1O	97.5
COC(=O)c1ccc(O)c(O)c1	107
O=C1C[C@@H](c2ccc(O)cc2)Oc2cc(O[C@@H]3O[C@H](CO)[C@@H](O)[C@H](O)[C@H]3O)ccc21	83.1
CC1(C)[C@@H](O)CC[C@]2(C)[C@H]3C(=O)C=C4[C@H]5C[C@@](C)(C(=O)O)CC[C@]5(C)CC[C@@]4(C)[C@]3(C)CC[C@@H]12	89
CCOC(=O)/C=C/c1ccc(O)c(O)c1	110
O=C(O)c1ccc(O)cc1	92.2
C=C1CC[C@@]2(C)[C@H]([C@@H]1C)[C@H]1CC[C@@H]3[C@@]4(C)CC[C@H](O)C(C)(C)[C@@H]4CC[C@@]3(C)[C@]1(C)C[C@@H]2O	91.2
Cc1c(O)cc2c(c1C)O[C@](C)(CCC[C@H](C)CCC[C@H](C)CCCC(C)C)CC2	105
C/C=C/C=C/C=C/CC/C=C/C(=O)NCC(C)(C)O	112
C=C(C)C1CC=C(C)[C@@H](O)C1 (some centres unmarked)	88.1
COc1c(O[C@@H]2O[C@H](CO)[C@@H](O)[C@H](O)[C@H]2O)cc2c(c1O)C(=O)c1c(cc(C)c(O)c1OC)C2=O	132
C[C@@H]1O[C@@H](O[C@@H]2C(=O)c3c(O)cc(O)cc3O[C@@H]2c2ccc(O)c(O)c2)[C@H](O)[C@H](O)[C@H]1O	88.7
Cc1cc(O)c2c(c1)C(=O)c1cccc(O)c1C2=O	93.4
CCCCCCCCCCCCCCCCCCOC(=O)[C@@]1(C)CC[C@]2(C)CC[C@]3(C)C(=CC(=O)[C@@H]4[C@@]5(C)CC[C@H](O)C(C)(C)[C@@H]5CC[C@]43C)[C@@H]2C1	91.1
COc1c(O)cc2c(c1O)C(=O)c1c(cc(C)c(O)c1OC)C2=O	109
CC(C)CNC(=O)/C=C/C=C/c1ccc2c(c1)OCO2	103

Series 2
Structure (SMILES): CC(C)CN(C)c1nc(N)c(C(=O)N=C(N)N)nc1Cl
Read-out: β-arrestin recruitment
Mode: agonist
Method: PRESTO-Tango
Tested at: 10 µM
Relative to: untreated
target	fold over basal
DRD2 (Homo sapiens, UniProt P14416)	0.56
CNR2 (Homo sapiens, UniProt P34972)	0.94
Glucagon receptor (GCGR, Homo sapiens, UniProt P47871)	0.75 fold
VIPR1 (Homo sapiens, UniProt P32241)	0.52 fold
TACR2 (Homo sapiens, UniProt P21452)	0.7 fold
Trace amine-associated receptor 9 (TAAR9, Homo sapiens, UniProt Q96RI9)	0.49 fold
BRS3 (Homo sapiens, UniProt P32247)	3.31
CCR7 (Homo sapiens, UniProt P32248)	1.14
NPBWR1 (Homo sapiens, UniProt P48145)	0.96
PTAFR (Homo sapiens, UniProt P25105)	1.43
RXFP4 (Homo sapiens, UniProt Q8TDU9)	1.61
NPY4R (Homo sapiens, UniProt P50391)	0.26
Mas-related G-protein coupled receptor member X4 (Homo sapiens, UniProt Q96LA9)	1.89
GNRHR (Homo sapiens, UniProt P30968)	0.92 fold
FSHR (Homo sapiens, UniProt P23945)	0.75 fold

Series 3
Structure (SMILES): CN([C@@H]1CCc2c(CC(=O)O)c3cc(S(C)(=O)=O)ccc3n2C1)S(=O)(=O)c1ccc(F)cc1
Read-out: cell-free assay
Method: competition with immobilised ligand
Tested at: 1 µM
target	remaining binding [%]
NEK1 (Homo sapiens, UniProt Q96PY6)	100
MAST1 (Homo sapiens, UniProt Q9Y2H9)	93
Tyrosine-protein kinase ABL1, phosphorylated (ABL1, Homo sapiens, UniProt P00519, T315I)	93
MAPK10 (Homo sapiens, UniProt P53779)	100
AKT3 (Homo sapiens, UniProt Q9Y243)	83
STK33 (Homo sapiens, UniProt Q9BYT3)	99
Tyrosine-protein kinase JAK1, JH1 (JAK1, Homo sapiens, UniProt P23458)	100
PAK6 (Homo sapiens, UniProt Q9NQU5)	100
MAP2K5 (Homo sapiens, UniProt Q13163)	100
Tyrosine-protein kinase ABL1, phosphorylated (ABL1, Homo sapiens, UniProt P00519, F317L)	92
PAK3 (Homo sapiens, UniProt O75914)	79
Non-receptor tyrosine-protein kinase TYK2, JH2 (TYK2, Homo sapiens, UniProt P29597)	83
BTK (Homo sapiens, UniProt Q06187)	90
CSK (Homo sapiens, UniProt P41240)	99
GRK4 (Homo sapiens, UniProt P32298)	100
PIK3CA (Homo sapiens, UniProt P42336, C420R)	98
Ribosomal protein S6 kinase alpha-1, C-terminal kinase domain (RPS6KA1, Homo sapiens, UniProt Q15418)	100
MTOR (Homo sapiens, UniProt P42345)	79
MAPK15 (Homo sapiens, UniProt Q8TD08)	100
CASK (Homo sapiens, UniProt O14936)	80
TSSK1B (Homo sapiens, UniProt Q9BXA7)	100
PRKD2 (Homo sapiens, UniProt Q9BZL6)	100
PHKG2 (Homo sapiens, UniProt P15735)	100
MAPK9 (Homo sapiens, UniProt P45984)	100
FGFR3 (Homo sapiens, UniProt P22607, G697C)	90

Series 4
Cell line: HaCaT
Tested at: 100 µM
Time: 60 h
Compound	viability [%]
CC(=O)Oc1ccc(C(c2ccc(OC(C)=O)cc2)c2ccccn2)cc1	15.9
CCC(CC)[C@H](NC(C)=O)[C@@H]1[C@H](O)[C@@H](C(=O)O)C[C@H]1NC(=N)N	125
Cc1cc(-c2ccc(/N=N/c3ccc4c(S(=O)(=O)O)cc(S(=O)(=O)O)c(N)c4c3O)c(C)c2)ccc1/N=N/c1ccc2c(S(=O)(=O)O)cc(S(=O)(=O)O)c(N)c2c1O	171
Cn1c([N+](=O)[O-])cnc1COC(N)=O	119
CCCC(=O)Nc1ccc(OCC(O)CNC(C)C)c(C(C)=O)c1 (centres unmarked)	146
NC(=O)c1ncn([C@@H]2O[C@H](CO)[C@@H](O)[C@H]2O)c1O	125

Repeated from above (series 1):
Compound	remaining activity [%]
COC(=O)c1ccc(O)c(O)c1	107
C[C@@H]1O[C@@H](O[C@@H]2C(=O)c3c(O)cc(O)cc3O[C@@H]2c2ccc(O)c(O)c2)[C@H](O)[C@H](O)[C@H]1O	88.7
O=C(O)c1ccc(O)cc1	92.2
O=C1C[C@@H](c2ccc(O)cc2)Oc2cc(O[C@@H]3O[C@H](CO)[C@@H](O)[C@H](O)[C@H]3O)ccc21	83.1
Cc1cc(O)c2c(c1)C(=O)c1cccc(O)c1C2=O	93.4
CC(C)CNC(=O)/C=C/C=C/c1ccc2c(c1)OCO2	103
COc1c(O)cc2c(c1O)C(=O)c1c(cc(C)c(O)c1OC)C2=O	109
COc1c(O[C@@H]2O[C@H](CO)[C@@H](O)[C@H](O)[C@H]2O)cc2c(c1O)C(=O)c1c(cc(C)c(O)c1OC)C2=O	132
C=C(C)C1CC=C(C)[C@@H](O)C1 (some centres unmarked)	88.1
CCCCCCCCCCCCCCCCCCOC(=O)[C@@]1(C)CC[C@]2(C)CC[C@]3(C)C(=CC(=O)[C@@H]4[C@@]5(C)CC[C@H](O)C(C)(C)[C@@H]5CC[C@]43C)[C@@H]2C1	91.1
